Results gathered from unrelated publications.
Lines come from different studies, so protocols differ. Values joined by “and” are separate records of one study, mostly repeats; a detail may differ. In brackets after ≈: the same amount, converted by molar mass.

| Compound | tested on | test | system | conditions | scale | measurement | value |
| --- | --- | --- | --- | --- | --- | --- | --- |
| COc1ccccc1-c1ccncc1C(=O)Nc1nnc(OCc2ccc(Cl)cc2)s1 | HCT116 BRCA2-/- |  |  | 4 µM, average of 3 runs | baseline: untreated | colony survival | 35.6% |
| CN1C(=O)C(C2C3=C(CC(C)(C)CC3=O)Oc3ccc([N+](=O)[O-])cc32)C(=O)N(C)C1=O (stereo not drawn) | 3T3-L1 | cell growth or viability, MTT |  | 72 h |  | IC20 | 118 µg/mL (≈ 275 µM) |
| O=C(O)C(Cl)Cl.OCCN(CCO)CCO | Solanum nigrum | herbicidal activity |  | 15 mg/mL, 21 days, post-emergence greenhouse |  | inhibition | -48% |
| CC[C@H](C)CCCCC(=O)N[C@@H](CCN)C(=O)N[C@H](C(=O)N[C@@H](CCN)C(=O)N[C@H]1CCNC(=O)[C@H]([C@@H](C)O)NC(=O)[C@H](CCN)NC(=O)[C@H](CCN)NC(=O)[C@H](CC(C)C)NC(=O)[C@@H](CC(C)C)NC(=O)[C@H](CCN)NC1=O)[C@@H](C)O | Escherichia coli | daily serial passaging | ATCC 8739 | highest sub-MIC, 50 days | baseline: initial MIC | MIC fold change | 2.42 |
| CCN(CC)C(=O)[C@@H]1C=C2c3cccc4c3c(cn4C(=O)c3cccs3)C[C@H]2N(C)C1 |  | magnetometer | C57BL/6J mouse, male | intraperitoneal, 0.75 mg/kg, 30 min session |  | head-twitch response count | 27.2 |
| Cc1cc(Oc2nc(N3CC[C@@H](c4ccncc4)C3)ncc2F)[nH]n1 | Mycobacterium tuberculosis | OD | H37Rv PurF CRISPRi knockdown | 4e-06 µM, together with: anhydrotetracycline low |  | normalised growth | 100% and 99% |
| CNCCc1c[nH]c2ccc(O)cc12 | NMT from Rhinella marina |  |  | 10 min, 30 °C |  | kcat | 0.0014 s⁻¹ |
| O=C(C[Se]C(=O)c1ccccc1)Nc1cccc(C(F)(F)F)c1 | NCI60 prostate subpanel (PC-3, DU-145) | cytotoxicity, inhibitor |  | five-dose |  | CC50 | 12.4 µM |
| Nc1ncc(-c2cc(-c3cnn(CC(F)(F)F)c3)ncc2F)nc1C(=O)NC1CNCC(F)C1 (stereo not drawn) | ABL1(F317L)-nonphosphorylated | KINOMEscan competition binding |  | 1 µM | baseline: DMSO control | remaining binding | 100% |
| [2H]C([2H])([2H])C1(C([2H])([2H])[2H])NC(=O)N(c2ccc(F)c(C(F)(F)F)c2)C1=O | Schistosoma mansoni |  | juvenile stage, infected mice | oral, 50 mg/kg | baseline: untreated infected | worm burden reduction | 9.4% |
| Cc1cc(C(=O)Nc2nc3cccc(C)c3n2[C@H]2CCCCN(C(=O)/C=C/CN(C)C)C2)ccn1 | Trypanosoma brucei | propidium iodide flow cytometry, item: G2/M phase | bloodstream CLK1 over-expression induced | concentration not given |  | cell cycle distribution | 24.1% and 26.7% and 25.2% |
| COc1ccccc1-c1n[nH]c2nc(NC3CCN(C(=O)Cc4ccc(F)cc4F)CC3)ncc12 |  | bead binding, competition bead pull-down, item: LINJ.23.0050 | Leishmania donovani extract | 10 µM | baseline: vehicle | relative abundance | 1 |
| CN1C(=O)C(C2C3=C(CC(C)(C)CC3=O)Oc3ccc(Cl)cc32)C(=O)N(C)C1=O (stereo not drawn) | 3T3-L1 | cell growth or viability, MTT |  | 72 h |  | IC20 | 102 µg/mL (≈ 245 µM) |
| Cc1ccc(C2=CC(C)(C)Oc3ccc(-c4ccc(-c5ccc(C(=O)O)cc5)[nH]4)cc32)cc1 |  |  | CD1 mouse male | 10 mg/kg for 2 weeks, after end of dosing |  | cauda epididymal sperm count | decreased |
| CCN(CC)C(=O)[C@@H]1C=C2c3cccc4c3c(cn4C(=O)c3ccco3)C[C@H]2N(C)C1 |  | magnetometer | C57BL/6J mouse, male | intraperitoneal, 0.125 mg/kg, 30 min session |  | head-twitch response count | 14.8 |
| COc1ccccc1-c1n[nH]c2nc(N[C@H]3CC[C@H](NS(=O)(=O)CC(C)C)CC3)ncc12 |  | bead binding, competition bead pull-down, item: LINJ.30.1440 | Leishmania donovani extract | 10 µM | baseline: vehicle | relative abundance | 0.92 |
| O=C(C[Se]C(=O)c1ccco1)Nc1cccc(C(F)(F)F)c1 | NCI60 leukemia subpanel | cell growth |  | 10 µM, 48 h, one-dose |  | mean growth percent | 35.4% |
| Cc1ccc2c(n1)c(-c1cccc(S(C)(=O)=O)c1)c(C)n2C/C(F)=C/CN | NMDA glutamate receptor (rat) | binding, radioligand binding | rat tissue | 10 µM, Agonism |  | inhibition | -7% |
| O=C(C[Se]C(=O)c1cc2ccccc2s1)Nc1cccc(C(F)(F)F)c1 | NCI60 NSCLC subpanel | NCI60 five-dose screen |  |  |  | CC50 | 5.93 µM |
| CCCCCCCCCCCCNC=C1N=C(c2ccc[nH]2)C=C1OC.Cl | Candidozyma auris | broth microdilution | CDC AR Bank #0381 | 24 h |  | MIC | 2 µg/mL |
| CC(C)(C)C(=O)OCOP(=O)(OCOC(=O)C(C)(C)C)C1CCCN(O)C1=O (stereo not drawn) | UACC-62 |  |  |  |  | TGI | 2.1 µM |
| O=C(O)c1ccc(-c2nc(-c3ccccc3Cl)c3sccn23)cc1 |  |  | C57BL/6 mice, 5-fluorouracil treated | dose not given, day 26 |  | reticulated platelets | 13.4% and 14.9% and 18.7% |
| CN1C(=O)C(C2C3=C(CCCC3=O)Oc3ccc(Br)cc32)C(=O)N(C)C1=O (stereo not drawn) | 3T3-L1 | cell growth or viability, MTT |  | 72 h |  | IC50 | > 100 µg/mL |
| Cc1ccc(NS(=O)(=O)c2c(C(=O)N3CCCCCC3)c(C)n(C)c2C)c(Cl)c1 | Human alphaherpesvirus 1 | viral infection | HaCaT | 3.704 µM, 36 h | baseline: untreated | infection | 102% and 112% and 101% |
| CCCCCC1=C(NCC)C(=O)C(C/C=C(\C)CCC=C(C)C)=C(O)C1=O |  | RNA-seq GSEA, item: HALLMARK_MYC_TARGETS_V1 | mouse, A53T α-synuclein lesioned, striatum | dose not given | baseline: untreated A53T lesioned mice, direction not given | normalised enrichment score | -1.45 |
| COc1c(NC(=O)c2ccc(NC(=O)c3ccc(NC(=O)[C@H](CC#N)NC(=O)c4ccc(NC(=O)/C(C)=C/c5ccc(O)cc5)cc4)cc3)c(OC)c2O)ccc(C(=O)O)c1O | Salmonella enterica serovar Kentucky | broth microdilution | ciprofloxacin-sensitive |  |  | MIC | 0.125 µg/mL (≈ 0.148 µM) |
| CC(C)CC(C(=O)N1CC2(CC1C#N)C(=O)Nc1ccccc12)N(C)C(=O)c1cc2c(F)cc(F)c(F)c2[nH]1 (stereo not drawn) | Human coronavirus 229E | cytopathic effect | MRC5 | 4.686 nM |  | inhibition | 90.1% |

Excerpt of the above:
| Compound | tested on | test | system | conditions | scale | measurement | value |
| --- | --- | --- | --- | --- | --- | --- | --- |
| Cc1ccc(C2=CC(C)(C)Oc3ccc(-c4ccc(-c5ccc(C(=O)O)cc5)[nH]4)cc32)cc1 |  |  | CD1 mouse male | 10 mg/kg for 2 weeks, after end of dosing |  | cauda epididymal sperm count | decreased |
| CCN(CC)C(=O)[C@@H]1C=C2c3cccc4c3c(cn4C(=O)c3ccco3)C[C@H]2N(C)C1 |  | magnetometer | C57BL/6J mouse, male | intraperitoneal, 0.125 mg/kg, 30 min session |  | head-twitch response count | 14.8 |
| COc1ccccc1-c1n[nH]c2nc(N[C@H]3CC[C@H](NS(=O)(=O)CC(C)C)CC3)ncc12 |  | bead binding, competition bead pull-down, item: LINJ.30.1440 | Leishmania donovani extract | 10 µM | baseline: vehicle | relative abundance | 0.92 |
| O=C(C[Se]C(=O)c1ccco1)Nc1cccc(C(F)(F)F)c1 | NCI60 leukemia subpanel | cell growth |  | 10 µM, 48 h, one-dose |  | mean growth percent | 35.4% |
| Cc1ccc2c(n1)c(-c1cccc(S(C)(=O)=O)c1)c(C)n2C/C(F)=C/CN | NMDA glutamate receptor (rat) | binding, radioligand binding | rat tissue | 10 µM, Agonism |  | inhibition | -7% |
